# Measurements collected from several papers.
# Compare with care: the assays were run in different laboratories. Values joined by “and” are separate records of one study, mostly repeats; a detail may differ. ± gives the spread as reported.
# Rab GDP dissociation inhibitor beta with Rab1A: Rab GDP dissociation inhibitor beta, with Rab1A (Homo sapiens, UniProt P50395)
# Voltage-dependent P/Q-type calcium channel subunit alpha-1A: Voltage-dependent P/Q-type calcium channel subunit alpha-1A (Homo sapiens, UniProt O00555)
# CHRM5: Muscarinic acetylcholine receptor M5 (CHRM5, Homo sapiens, UniProt P08912)
SMILES,target,test,system,conditions,inhibition
Cc1cc(C)cc(COc2cc3c(cc2OCc2cc(C)cc(C)c2)[C@H]2C[C@](O)(Cc4cn(Cc5cccc6ccccc56)nn4)C[C@H](C)N2CC3)c1,Rab GDP dissociation inhibitor beta with Rab1A,"GDI2-Rab1A interaction, inhibitor, NanoLuc complementation",,6.25 µM,88.8%
CC[C@@H]1[C@H](F)C(=O)N[C@@H]1COc1nccc2cc(C(N)=O)c(OC)cc12,"EPHA7 (Homo sapiens, UniProt Q15375)","ATP probe binding, KiNativ profiling, refers to: activation loop probe site",THP-1 cell lysate,0.01 mM,-8.6%
CC(=O)O[C@H]1C(=O)[C@@]2(C)[C@H]([C@H](OC(=O)c3ccccc3)[C@]3(O)C[C@H](OC(=O)[C@H](O)[C@@H](NC(=O)c4ccccc4)c4ccccc4)C(C)=C1C3(C)C)[C@]1(OC(C)=O)CO[C@@H]1C[C@@H]2O,Voltage-dependent P/Q-type calcium channel subunit alpha-1A,"ion current, antagonist",HEK293,30 µM,7%
Cc1ccc(C(=O)Nc2ccc3ccccc3c2)o1,"A-type voltage-gated potassium channel KCND3 (Rattus norvegicus, UniProt Q62897)","ion current, whole-cell patch-clamp",,"10 µM, rKv4.3",7.02%
C[C@H](NCc1ccc(OCc2ccccc2F)cc1)C(N)=O,Voltage-dependent P/Q-type calcium channel subunit alpha-1A,"ion current, antagonist",HEK293,10 µM,40%
Cc1cc2c(cc1N1C(=O)c3cccc4c(CCCO)ccc(c34)C1=O)n(C)c(=O)n2C (racemic),"ATAD2B (Homo sapiens, UniProt Q9ULI0)","binding, BROMOscan binding",,1000 nM,59%
O=C(OC[C@H]1O[C@@H](OC(=O)c2cc(O)c(O)c(O)c2)[C@H](OC(=O)c2cc(O)c(O)c(O)c2)[C@@H](OC(=O)c2cc(O)c(O)c(O)c2)[C@@H]1OC(=O)c1cc(O)c(O)c(O)c1)c1cc(O)c(O)c(O)c1,"PDIA6 (Homo sapiens, UniProt Q15084)",di-eosin-GSSG reductase activity,,"20 µM, 15 min",inhibited
CC(=O)Oc1ccccc1C(=O)O,Voltage-dependent P/Q-type calcium channel subunit alpha-1A,"ion current, antagonist",HEK293,10 µM,11%
Cc1cc(C)cc(COc2cc3c(cc2OCc2cc(C)cc(C)c2)[C@H]2C[C@](O)(Cc4cn(Cc5cccnc5)nn4)C[C@H](C)N2CC3)c1,Rab GDP dissociation inhibitor beta with Rab1A,"GDI2-Rab1A interaction, NanoLuc complementation",,6.25 µM,59.6%
O=C(CSc1nc2nccnc2c(=O)n1CCc1ccccc1)Nc1nccs1,"Phosphatidylinositol 4,5-bisphosphate 3-kinase catalytic subunit alpha isoform, with p85 alpha (PIK3CA, Homo sapiens, UniProt P42336, E542K)",,,"10 µM, E542K with PIK3R1",34%
CCN1CCN(Cc2ccc(NC(=O)c3ccc(C)c(/C=C/c4cnc5[nH]ccc5c4OC)c3)cc2C(F)(F)F)CC1,"ATR (Homo sapiens, UniProt Q13535)",,A-375,5 µM,-19.1%
O=C(NO)c1ccc(CN2CCCCc3ccccc32)c(F)c1,CHRM5,"radioligand binding, radioligand displacement",,"10 µM, mean of replicates",-6.72%
Cc1cc(-c2ccnc3[nH]cc(F)c23)cc(F)c1[C@@]1(O)[C@H](C)CN(C2CCS(=O)(=O)CC2)C[C@@H]1C,"PIK3C3 (Homo sapiens, UniProt Q8NEB9)","ATP probe binding, KiNativ, refers to: ATP site",HEK293T cell lysate,10 µM,87.8%
CCc1oc2ccccc2c1C(=O)c1cc(Br)c(O)c(Br)c1,"SLC22A12 (Homo sapiens, UniProt Q96S37, L153A)",urate uptake,HEK293T,"0.5 µM, 10 min, 37 °C, together with: 200 µM [14C]urate",36.1% and 47.7% and 42.8% and 55.7% and 26.9% and 47.3%
COc1cc(C(=O)NS(=O)(=O)c2ccccc2C)ccc1Cc1cn(C)c2ccc(NC(=O)OC3CCCC3)cc12,"Volume-regulated anion channel subunit LRRC8C, part LRRC8A IL1 chimera (LRRC8C, Homo sapiens, UniProt Q8TDW0, M48D)","ion current, inhibitor, whole-cell patch clamp",HCT LRRC8-/- cells,"30 µM, constitutively open channel, +100 mV",65.9% and 73.7% and 67.2% and 51.7% and 56.8% and 59.9%
CCS(=O)(=O)c1nc(S(=O)(=O)c2ccccc2Cl)c(N2CCN(C)C(=O)[C@H]2C)s1,CHRM5,,,10 µM,4.73%
Cc1ccc(Cn2cc(C[C@@]3(O)C[C@@H]4c5cc(OCc6cc(C)cc(C)c6)c(OCc6cc(C)cc(C)c6)cc5CCN4[C@@H](C)C3)nn2)cc1,Rab GDP dissociation inhibitor beta with Rab1A,"GDI2-Rab1A interaction, NanoLuc complementation",,6.25 µM,83.3%
OO,"Histone acetyltransferase RTT109, with Vps75 (Saccharomyces cerevisiae, UniProt Q07794)","enzyme activity, inhibitor",,"62.5 µM, Rtt109-Vps75 complex, 1 mM DTT, together with: [3H]acetyl-CoA",0 ± 10%
O=C(Nc1cccc2c(=O)cc(-c3nnn[nH]3)oc12)c1ccc(OCCCCc2ccccc2)cc1,"Volume-regulated anion channel subunit LRRC8C, part LRRC8A IL1 chimera (LRRC8C, Homo sapiens, UniProt Q8TDW0)","ion current, inhibitor, whole-cell patch clamp","HCT LRRC8-/- cells, transfected","3 µM, low ionic strength swelling, +100 mV",86.1% and 70.9% and 53.1% and 71.3%
CC12CC3CC(C)(C1)CC(N)(C3)C2,Voltage-dependent P/Q-type calcium channel subunit alpha-1A,"ion current, antagonist",HEK293,30 µM,32%
C/C=C/C(=O)Nc1ccc(Cn2cc(C[C@@]3(O)C[C@@H]4c5cc(OCc6cc(C)cc(C)c6)c(OCc6cc(C)cc(C)c6)cc5CCN4[C@@H](C)C3)nn2)cc1,Rab GDP dissociation inhibitor beta with Rab1A,"GDI2-Rab1A interaction, NanoLuc complementation",,6.25 µM,94.9%
[2H]c1cc(C)c(NC(=O)c2cnc(Nc3cc(N4CCCCC4)nc(C)n3)s2)c(Cl)c1,"PDGFRB (Homo sapiens, UniProt P09619)",,,0.001 µM,> 50%
COc1ccc(F)cc1C(=O)NCc1ccc(-c2nn([C@@H](C)C(F)(F)F)c(N)c2C(N)=O)cc1,"TEC (Homo sapiens, UniProt P42680)","probe binding, competitive chemoproteomics",live human PBMCs,1 µM,> 50%
CN[C@H]1CC[C@@H](c2ccc(Cl)c(Cl)c2)c2ccccc21,Voltage-dependent P/Q-type calcium channel subunit alpha-1A,"ion current, antagonist",HEK293,30 µM,100%
OCCCN1CC[C@@H]2C[C@H]1c1cc(-c3ccc(C(F)(F)F)cc3)ccc12,CHRM5,"radioligand binding, PDSP competition binding",,10 µM,< 50%
Cc1cc(C)cc(COc2cc3c(cc2OCc2cc(C)cc(C)c2)[C@H]2C[C@](O)(Cc4cn(CC5CCCCC5)nn4)C[C@H](C)N2CC3)c1,Rab GDP dissociation inhibitor beta with Rab1A,"GDI2-Rab1A interaction, NanoLuc complementation",,6.25 µM,87.2%
Cc1cc(-c2ccnc3[nH]cc(F)c23)cc(F)c1[C@@]1(O)[C@H](C)CN(C(=O)CN)C[C@@H]1C,"LATS1 (Homo sapiens, UniProt O95835)","ATP probe binding, KiNativ, refers to: Lys2 site",HEK293T cell lysate,0.1 µM,37.5%
CCCN1C[C@H](CSC)C[C@@H]2c3cccc4[nH]cc(c34)C[C@H]21,Voltage-dependent P/Q-type calcium channel subunit alpha-1A,"ion current, antagonist",HEK293,30 µM,34%
C=C1O[C@H](CO)[C@@H](O)[C@H](O)[C@H]1O,"uncharacterized protein (Saccharopolyspora erythraea, UniProt A4F7P9)",enzyme activity,,"concentration not given, kinetics",no inhibition
C[C@@H](NC(=O)[C@H](CCCCNC(=O)C(F)(F)F)NS(C)(=O)=O)C(=O)N[C@@H](CCCNC(=N)N)C(N)=O,"SIRT2 (Homo sapiens, UniProt Q8IXJ6)","enzyme activity, inhibitor",,100 µM,< 5%
O=C(NCCCNS(=O)(=O)c1ccc(OC(F)(F)F)cc1)C1=Cc2ccccc2S1(=O)=O,"PTPN11 (Homo sapiens, UniProt Q06124)",enzyme activity,,"25 to 30 µM, phosphatase selectivity panel",no inhibition
Cn1cc(-c2cnc3ccc(NC(=O)Nc4ccc(F)c(Br)c4)cc3n2)cn1,"MAP3K4 (Homo sapiens, UniProt Q9Y6R4)","kinase binding, KiNativ profiling, refers to: Lys2 peptide",PANC-1 lysate,2.5 µM,4.3%
CNCCC(Oc1ccc(C(F)(F)F)cc1)c1ccccc1.Cl (stereo not shown),Voltage-dependent P/Q-type calcium channel subunit alpha-1A,"ion current, antagonist",,30 µM,45%
Cc1cc(Oc2ncccc2CN2CCN(c3ccccc3)CC2)ccc1-c1c(C)c(=O)[nH]c(=O)n1C,"ADRA2C (Homo sapiens, UniProt P18825)","cAMP production, agonist, GloSensor",cells overexpressing ADRA2C,"concentration not given, together with: isoproterenol",no inhibition
N[C@@H](Cc1ccc(O)c(O)c1)C(=O)O,Voltage-dependent P/Q-type calcium channel subunit alpha-1A,"ion current, antagonist",HEK293,30 µM,8%
Cc1c(-c2ccccc2)oc2c(C(=O)O)cccc2c1=O,"Anoctamin-1 (Ano1, Mus musculus, UniProt Q8BHY3)","ion current, inhibitor",HEK293 transfected,"30 µM, at +80 mV",~15% and 15%
Cc1nn(-c2nc3c(F)cc(F)cc3s2)c(O)c1C(c1ccccc1C(=O)O)c1c(C)nn(-c2nc3c(F)cc(F)cc3s2)c1O,"CGAS (Homo sapiens, UniProt Q8N884)","enzyme activity, inhibitor, pyrophosphatase-coupled",,"50 µM, 1.5 h, together with: HT-DNA",82.9%

# For quick reference, copied from above:
SMILES,target,test,system,conditions,inhibition
CC[C@@H]1[C@H](F)C(=O)N[C@@H]1COc1nccc2cc(C(N)=O)c(OC)cc12,"EPHA7 (Homo sapiens, UniProt Q15375)","ATP probe binding, KiNativ profiling, refers to: activation loop probe site",THP-1 cell lysate,0.01 mM,-8.6%
Cc1cc(C)cc(COc2cc3c(cc2OCc2cc(C)cc(C)c2)[C@H]2C[C@](O)(Cc4cn(CC5CCCCC5)nn4)C[C@H](C)N2CC3)c1,Rab GDP dissociation inhibitor beta with Rab1A,"GDI2-Rab1A interaction, NanoLuc complementation",,6.25 µM,87.2%
CCS(=O)(=O)c1nc(S(=O)(=O)c2ccccc2Cl)c(N2CCN(C)C(=O)[C@H]2C)s1,CHRM5,,,10 µM,4.73%
Cc1cc(C)cc(COc2cc3c(cc2OCc2cc(C)cc(C)c2)[C@H]2C[C@](O)(Cc4cn(Cc5cccc6ccccc56)nn4)C[C@H](C)N2CC3)c1,Rab GDP dissociation inhibitor beta with Rab1A,"GDI2-Rab1A interaction, inhibitor, NanoLuc complementation",,6.25 µM,88.8%
Cc1cc(-c2ccnc3[nH]cc(F)c23)cc(F)c1[C@@]1(O)[C@H](C)CN(C(=O)CN)C[C@@H]1C,"LATS1 (Homo sapiens, UniProt O95835)","ATP probe binding, KiNativ, refers to: Lys2 site",HEK293T cell lysate,0.1 µM,37.5%
Cc1ccc(C(=O)Nc2ccc3ccccc3c2)o1,"A-type voltage-gated potassium channel KCND3 (Rattus norvegicus, UniProt Q62897)","ion current, whole-cell patch-clamp",,"10 µM, rKv4.3",7.02%
